# Assay results gathered from unrelated publications.
# Compare with care: the assays were run in different laboratories. Numbers after ± are the reported error.
# PPARG ligand-binding domain: Peroxisome proliferator-activated receptor gamma, ligand-binding domain (PPARG, Homo sapiens, UniProt P37231)
# UniProt P37231, sequence (whole entry, looked up): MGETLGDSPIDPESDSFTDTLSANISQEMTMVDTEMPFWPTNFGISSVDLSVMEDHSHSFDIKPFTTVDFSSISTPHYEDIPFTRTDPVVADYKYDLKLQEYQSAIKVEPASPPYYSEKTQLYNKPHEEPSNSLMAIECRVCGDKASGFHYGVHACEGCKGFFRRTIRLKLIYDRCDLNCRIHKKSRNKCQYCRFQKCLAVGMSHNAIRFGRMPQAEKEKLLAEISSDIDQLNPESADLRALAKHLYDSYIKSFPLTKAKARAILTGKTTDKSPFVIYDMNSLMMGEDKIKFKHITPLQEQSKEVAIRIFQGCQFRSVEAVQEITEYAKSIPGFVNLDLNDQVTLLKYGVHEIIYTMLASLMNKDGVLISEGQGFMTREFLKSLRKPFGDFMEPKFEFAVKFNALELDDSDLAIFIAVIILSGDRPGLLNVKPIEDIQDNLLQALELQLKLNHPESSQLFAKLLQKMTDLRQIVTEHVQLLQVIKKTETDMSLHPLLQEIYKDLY
# PPARG: Peroxisome proliferator-activated receptor gamma (PPARG, Homo sapiens, UniProt P37231)
# Rhomboid protease AarA: Rhomboid protease AarA (Providencia stuartii, UniProt P46116)
# UniProt P46116, sequence (whole entry, looked up): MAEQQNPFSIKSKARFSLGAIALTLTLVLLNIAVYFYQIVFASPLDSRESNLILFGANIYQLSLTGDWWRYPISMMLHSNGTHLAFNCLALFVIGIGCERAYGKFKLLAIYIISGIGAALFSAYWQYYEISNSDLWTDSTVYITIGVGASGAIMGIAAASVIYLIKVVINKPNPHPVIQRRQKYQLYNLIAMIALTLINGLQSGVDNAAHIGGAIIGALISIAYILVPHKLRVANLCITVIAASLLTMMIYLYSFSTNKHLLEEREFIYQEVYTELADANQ
# UniProt Q13547, sequence (whole entry, looked up): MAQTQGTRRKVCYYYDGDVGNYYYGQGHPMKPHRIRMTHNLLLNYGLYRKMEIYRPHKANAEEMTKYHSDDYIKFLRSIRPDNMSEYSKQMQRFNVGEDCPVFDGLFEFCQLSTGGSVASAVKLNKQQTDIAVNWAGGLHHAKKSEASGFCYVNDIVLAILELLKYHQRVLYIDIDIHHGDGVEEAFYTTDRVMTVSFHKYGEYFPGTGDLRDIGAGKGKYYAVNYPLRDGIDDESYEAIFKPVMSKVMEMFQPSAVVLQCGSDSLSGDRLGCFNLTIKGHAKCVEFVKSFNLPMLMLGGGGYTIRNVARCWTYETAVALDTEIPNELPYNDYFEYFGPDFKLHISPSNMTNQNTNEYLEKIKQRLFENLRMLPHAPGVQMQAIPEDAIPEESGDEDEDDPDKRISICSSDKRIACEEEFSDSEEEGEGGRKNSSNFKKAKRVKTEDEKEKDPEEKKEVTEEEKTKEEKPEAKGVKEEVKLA
# UniProt Q92630, sequence (whole entry, looked up): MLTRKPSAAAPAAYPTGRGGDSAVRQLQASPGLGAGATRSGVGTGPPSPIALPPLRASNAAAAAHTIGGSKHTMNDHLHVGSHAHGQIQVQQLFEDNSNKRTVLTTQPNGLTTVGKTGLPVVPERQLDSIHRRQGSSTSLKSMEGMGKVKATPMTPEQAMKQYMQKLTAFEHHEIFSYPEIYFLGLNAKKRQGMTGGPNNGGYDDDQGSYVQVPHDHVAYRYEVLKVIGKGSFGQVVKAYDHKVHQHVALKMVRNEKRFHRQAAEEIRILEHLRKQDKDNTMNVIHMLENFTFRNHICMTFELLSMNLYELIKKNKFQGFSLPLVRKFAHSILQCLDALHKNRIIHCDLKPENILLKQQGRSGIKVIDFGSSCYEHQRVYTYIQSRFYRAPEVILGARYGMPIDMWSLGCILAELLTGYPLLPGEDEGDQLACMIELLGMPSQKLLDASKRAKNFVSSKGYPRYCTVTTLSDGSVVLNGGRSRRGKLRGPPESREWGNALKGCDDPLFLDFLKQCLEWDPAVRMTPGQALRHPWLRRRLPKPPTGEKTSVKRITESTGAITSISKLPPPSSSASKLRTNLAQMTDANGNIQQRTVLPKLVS
# UniProt P06401, sequence (whole entry, looked up): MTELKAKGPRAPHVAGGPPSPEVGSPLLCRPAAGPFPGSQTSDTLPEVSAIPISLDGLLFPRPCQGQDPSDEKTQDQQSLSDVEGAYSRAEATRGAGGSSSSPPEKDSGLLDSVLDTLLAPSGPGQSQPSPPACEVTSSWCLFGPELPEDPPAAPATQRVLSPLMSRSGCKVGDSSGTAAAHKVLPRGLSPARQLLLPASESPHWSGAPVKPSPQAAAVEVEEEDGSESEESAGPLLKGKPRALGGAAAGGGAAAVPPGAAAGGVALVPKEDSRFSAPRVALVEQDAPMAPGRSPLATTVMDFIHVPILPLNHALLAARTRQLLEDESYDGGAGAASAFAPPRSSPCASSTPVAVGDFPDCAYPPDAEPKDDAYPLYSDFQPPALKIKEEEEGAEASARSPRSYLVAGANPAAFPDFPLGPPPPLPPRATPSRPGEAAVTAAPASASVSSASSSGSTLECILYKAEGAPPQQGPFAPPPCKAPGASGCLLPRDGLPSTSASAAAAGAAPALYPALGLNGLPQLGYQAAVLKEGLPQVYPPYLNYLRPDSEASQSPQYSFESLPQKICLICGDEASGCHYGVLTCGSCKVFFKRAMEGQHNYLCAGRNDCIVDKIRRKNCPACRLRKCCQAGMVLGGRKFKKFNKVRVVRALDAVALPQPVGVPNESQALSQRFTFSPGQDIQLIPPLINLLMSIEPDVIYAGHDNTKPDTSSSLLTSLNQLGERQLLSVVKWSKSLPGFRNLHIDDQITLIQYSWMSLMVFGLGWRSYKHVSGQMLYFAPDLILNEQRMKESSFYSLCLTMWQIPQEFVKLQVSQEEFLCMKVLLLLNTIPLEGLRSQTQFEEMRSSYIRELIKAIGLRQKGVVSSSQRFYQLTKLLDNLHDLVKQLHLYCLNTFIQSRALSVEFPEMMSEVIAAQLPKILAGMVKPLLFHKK
# UniProt P0A988, sequence (whole entry, looked up): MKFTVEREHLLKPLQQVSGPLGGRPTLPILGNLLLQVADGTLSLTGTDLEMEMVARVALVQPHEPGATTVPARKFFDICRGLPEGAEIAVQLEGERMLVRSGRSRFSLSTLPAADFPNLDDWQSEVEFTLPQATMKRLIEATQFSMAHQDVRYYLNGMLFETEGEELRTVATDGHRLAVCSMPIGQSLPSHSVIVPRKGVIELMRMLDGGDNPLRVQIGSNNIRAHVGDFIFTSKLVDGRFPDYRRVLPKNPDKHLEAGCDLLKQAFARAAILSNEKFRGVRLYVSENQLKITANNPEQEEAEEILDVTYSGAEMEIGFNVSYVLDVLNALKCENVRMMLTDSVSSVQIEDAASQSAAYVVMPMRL
# UniProt P48145, sequence (whole entry, looked up): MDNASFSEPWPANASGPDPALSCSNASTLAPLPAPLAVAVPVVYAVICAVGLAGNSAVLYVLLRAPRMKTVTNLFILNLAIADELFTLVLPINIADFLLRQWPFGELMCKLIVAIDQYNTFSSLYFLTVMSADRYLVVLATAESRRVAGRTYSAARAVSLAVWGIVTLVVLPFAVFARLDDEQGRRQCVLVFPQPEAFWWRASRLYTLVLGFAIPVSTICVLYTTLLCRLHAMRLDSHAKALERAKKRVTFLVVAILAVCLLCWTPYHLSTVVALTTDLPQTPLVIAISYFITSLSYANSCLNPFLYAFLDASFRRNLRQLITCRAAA
# UniProt P29466, sequence (whole entry, looked up): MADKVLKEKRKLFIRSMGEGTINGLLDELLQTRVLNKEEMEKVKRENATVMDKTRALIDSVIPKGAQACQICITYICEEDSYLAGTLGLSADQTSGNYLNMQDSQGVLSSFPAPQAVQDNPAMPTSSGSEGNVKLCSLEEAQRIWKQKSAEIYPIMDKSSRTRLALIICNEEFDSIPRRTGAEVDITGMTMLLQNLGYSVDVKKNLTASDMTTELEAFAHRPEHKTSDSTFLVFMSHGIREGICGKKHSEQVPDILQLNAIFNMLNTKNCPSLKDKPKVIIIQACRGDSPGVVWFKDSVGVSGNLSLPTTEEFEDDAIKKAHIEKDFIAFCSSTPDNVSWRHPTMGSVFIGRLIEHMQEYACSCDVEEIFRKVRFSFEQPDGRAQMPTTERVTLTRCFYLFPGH
# UniProt Q9P1W9, sequence (whole entry, looked up): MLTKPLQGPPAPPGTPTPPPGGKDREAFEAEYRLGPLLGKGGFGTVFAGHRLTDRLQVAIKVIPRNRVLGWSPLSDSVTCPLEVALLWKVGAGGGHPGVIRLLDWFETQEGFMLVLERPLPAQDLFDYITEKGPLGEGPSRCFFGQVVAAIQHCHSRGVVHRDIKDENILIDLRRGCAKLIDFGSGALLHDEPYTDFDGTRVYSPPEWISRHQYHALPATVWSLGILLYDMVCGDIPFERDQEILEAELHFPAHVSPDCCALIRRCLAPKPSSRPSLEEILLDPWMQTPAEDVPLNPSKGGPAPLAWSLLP
# UniProt P43358, sequence (whole entry, looked up): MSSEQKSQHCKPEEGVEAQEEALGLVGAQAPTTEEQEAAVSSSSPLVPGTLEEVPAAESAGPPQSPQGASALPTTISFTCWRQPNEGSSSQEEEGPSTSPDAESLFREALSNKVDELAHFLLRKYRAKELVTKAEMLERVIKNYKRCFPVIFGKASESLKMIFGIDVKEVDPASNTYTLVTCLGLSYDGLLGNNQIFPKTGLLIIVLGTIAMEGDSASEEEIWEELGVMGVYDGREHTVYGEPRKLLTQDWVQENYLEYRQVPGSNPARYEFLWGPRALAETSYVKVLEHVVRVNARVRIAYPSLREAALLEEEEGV
Structure (SMILES),target,observed,mode,technique,cell line,added,IC50 [µM]
Cc1c(Cc2cccc(OC(C)C(=O)O)c2)c2ccc(C(=O)N[C@@H](C)c3ccc(C(F)(F)F)cc3)cc2n1C (some centres unmarked),PPARG ligand-binding domain,reporter gene,,luciferase reporter,"HEK293T, Gal4-PPARγ LBD",,3.38
C[C@@H]1Cc2c([nH]c3ccccc23)[C@@H](c2c(F)cc(/C=C/C(=O)O)cc2F)N1C12CC(C1)C2,"Progesterone receptor (PGR, Homo sapiens, UniProt P06401)",PR receptor activity,agonist,cell-based,,,> 10
COC(=O)CCCCNC(=O)c1ccc(Nc2ncc(F)c(-c3cc(F)c4nc(C)n(C(C)C)c4c3)n2)cc1,"Histone deacetylase 1 (HDAC1, Homo sapiens, UniProt Q13547)",enzyme activity,inhibitor,,,,> 1
Cc1nn(-c2cccc(N)c2)c(=O)c2cnc(Nc3ccc(N4CCNCC4)cc3)nc12,"Serine/threonine-protein kinase pim-2 (PIM2, Homo sapiens, UniProt Q9P1W9)",enzyme activity,inhibitor,,,,> 10
CCCSc1nc(Sc2nnc(C)s2)c2nnn(CCO)c2n1,"Lysine-specific histone demethylase 1A (KDM1A, Homo sapiens, UniProt O60341)",enzyme activity,inhibitor,fluorescence,,,3.94
CC(C)C[C@H](NC(=O)CNC(=O)[C@H](C)NC(=O)[C@H](C)NC(=O)[C@H](CCCNC(=N)N)NC(=O)CNC(=O)CCCCNC(=O)CCCCNC(=O)CCCCNC(=O)[C@H](CCCCN)NC(=O)[C@H](C)NC(=O)[C@@H](N)Cc1c[nH]c2ccccc12)C(=O)N[C@@H](CC(C)C)C(=O)N[C@@H](CO)C(N)=O,"Neuropeptides B/W receptor type 1 (NPBWR1, Homo sapiens, UniProt P48145)",calcium signal,antagonist,,,,0.84
Cc1c(Cc2cccc(OC(C)(C)C(=O)O)c2)c2ccc(C(=O)N[C@@H](C)c3cccc(C(C)(C)C)c3)cc2n1CC1CCC1,PPARG,ligand displacement,,TR-FRET,,,0.00661
CC[C@H](C)[C@@H]1NC(=O)[C@H](Cc2ccc(O)cc2)NC(=O)CSC[C@@H](C(N)=O)NC(=O)[C@H](Cc2c[nH]cn2)NC(=O)[C@H](Cc2ccc(O)cc2)NC(=O)[C@H](CC(=O)O)NC(=O)[C@H](Cc2ccc(O)cc2)NC(=O)[C@H](CC(C)C)NC(=O)[C@H](CCCNC(=N)N)NC1=O,"Melanoma-associated antigen 4, MAGE homology domain (Homo sapiens, UniProt P43358)",binding,inhibitor,TR-FRET displacement,,Alexa647-MTP-1,0.419 ± 0.055
Cc1c(Cc2cc(Cl)cc(O[C@H](C)C(=O)O)c2)c2ccc(C(=O)N[C@@H](C)c3ccc(C(C)(C)C)cc3)cc2n1CC1CCC1,PPARG ligand-binding domain,reporter gene,,luciferase reporter,"HEK293T, Gal4-PPARγ LBD",,0.94
O=C(NC1CCCCC1)C(C(F)(F)F)C(F)(F)F,Rhomboid protease AarA,enzyme activity,inhibitor,fluorescence,,,25
CCSc1nc2c(s1)c(=O)n(-c1ccccc1)c(=O)n2CC(=O)NCc1ccccc1,"Beta sliding clamp (Escherichia coli, UniProt P0A988)",,,,,,88.5 ± 2.6
CC1C(=O)N(S(=O)(=O)c2ccc(C#N)cc2)C1c1ccccc1 (racemic),Rhomboid protease AarA,enzyme activity,inhibitor,,,,134
CCOC(=O)C[C@@H](C#N)NC(=O)[C@@H]1CCCN1C(=O)[C@@H](NC(=O)c1ccc(N)c(Cl)c1)C(C)(C)C,"Caspase-1 (CASP1, Homo sapiens, UniProt P29466)",enzyme activity,inhibitor,,,,0.00766
Cc1c(Cc2ccc(OC(C)C(=O)O)cc2)c2ccc(C(=O)NC(C)c3cccc(C4CC4)c3)cc2n1C (mixture of isomers),PPARG ligand-binding domain,reporter gene,,luciferase reporter,"HEK293T, Gal4-PPARγ LBD",,6.94
CC(C)(C)OC(=O)c1cccc(NC(=O)C(C(F)(F)F)C(F)(F)F)c1,Rhomboid protease AarA,enzyme activity,inhibitor,fluorescence,,,6.3
Cc1c(Cc2cccc(OC(C(=O)O)C3CC3)c2)c2ccc(C(=O)NC(C)c3cccc(C(C)(C)C)c3)cc2n1C (mixture of isomers),PPARG,ligand displacement,,TR-FRET,,,0.118
COc1ccc(Nc2cc(NC3CC3)n3ncc(C#N)c3n2)cc1,"Dual specificity tyrosine-phosphorylation-regulated kinase 2 (DYRK2, Homo sapiens, UniProt Q92630)",,inhibitor,,,,0.72

# Excerpt of the above:
Structure (SMILES),target,observed,mode,technique,cell line,added,IC50 [µM]
CCCSc1nc(Sc2nnc(C)s2)c2nnn(CCO)c2n1,"Lysine-specific histone demethylase 1A (KDM1A, Homo sapiens, UniProt O60341)",enzyme activity,inhibitor,fluorescence,,,3.94
